Assay results gathered from unrelated publications.
A part holds a random share of what one study measured. Changes are numbered by the printed parent chain.

Study 1 — method: protein binding microarray; molecule type: double-stranded DNA, one strand shown; sample: in vitro; tested at: not given; baseline: not given; direction: higher = stronger binding; quantity: E-score
Target: Histone acetyltransferase KAT6A, both winged helices, GST fusion (KAT6A, Homo sapiens, UniProt Q92794, residues 1-181)
Notes: 8-mer, flanks averaged, mean of 2 arrays, mostly near background
Target sequence (chain): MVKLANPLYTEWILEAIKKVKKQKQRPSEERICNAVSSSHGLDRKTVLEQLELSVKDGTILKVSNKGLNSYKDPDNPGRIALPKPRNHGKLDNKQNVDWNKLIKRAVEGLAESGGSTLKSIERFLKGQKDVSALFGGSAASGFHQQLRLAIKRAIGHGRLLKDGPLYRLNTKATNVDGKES
AGAGGTAC: -0.158
CATGCTCA: -0.0377
GATGACCC: -0.146
CAGCGCTA: 0.253
ATCCTAGA: 0.0328
CCCTGAAG: -0.134
ACGGCGAG: 0.24
AGGCGCAT: 0.158
CCCCACGA: -0.208
CTGTTTTC: 0.0358
CTACTAAG: 0.0751
AGGATGCA: -0.122
GGACGCGA: 0.116
TATTAGAA: -0.0973
AGGAGATC: -0.151
ACAGGATG: -0.0936
GTAAACTA: 0.0297
GTAAGGAA: -0.188
CGAAGTCG: 0.0206
AAAGAACA: -0.102
AGGTTTGA: -0.164
ACGGCGGG: 0.34
GTTCTCTA: 0.0661
CATCCATA: -0.132
CGCCCAAA: -0.0305

Study 2 — target: CCNB2, cyclin fold, Cln2 fusion (human); method: yeast growth competition, sequencing; sample: yeast; notes: strong parent motif; baseline: not given; direction: higher = stronger binding; quantity: normalised enrichment score
Parent: E2F1 docking peptide (human); PPVKRRLDFETDH
PPVKRRLMFETDH [D8M]: 2.72
PPVKRRLDPETDH [F9P]: -0.145
PVVKRRLDFETDH [P2V]: 2.94
PPVKRRLDFETRH [D12R]: 2.61
PPVKWRLDFETDH [R5W]: -0.0498
PPVKRRLGFETDH [D8G]: 0.897
PPVMRRLDFETDH [K4M]: 2.43
PPIKRRLDFETDH [V3I]: 3.77
PPVKMRLDFETDH [R5M]: 2.27
PPQKRRLDFETDH [V3Q]: 0.461
PPVKRGLDFETDH [R6G]: 0.375
PPVKRRLDFETMH [D12M]: 3.51
PPVKRRLDFPTDH [E10P]: 1.64
PPVKRRLEFETDH [D8E]: 3.16
PPVKRRLDRETDH [F9R]: 0.212
PPVRRRLDFETDH [K4R]: 4.42
PPVKRRLDDETDH [F9D]: -0.0366
PPVKRRLDFGTDH [E10G]: 3.58
PPVKRNLDFETDH [R6N]: 1.07
PPPKRRLDFETDH [V3P]: 0.908
PPVKRRLDEETDH [F9E]: 0.61
PPVKRRQDFETDH [L7Q]: 0.489
PPVNRRLDFETDH [K4N]: 2.45
PPVKRRLDFETQH [D12Q]: 3.25

Study 3 — method: Sort-seq; measured: YFP reporter; sample: E. coli; notes: PhoQ-PhoP variant library; together with: 10 µM Mg2+; baseline: high Mg2+ state; direction: higher = stronger signaling; quantity: fold induction
Substance: PhoQ, residues 284 288 289 292 302 303 HSYLQF
PhoP, residues 12 14 15 18 19 SFCSL (Escherichia coli, UniProt P23836): 35.2
PhoP, residues 12 14 15 18 19 AYFRS (Escherichia coli, UniProt P23836): 2.07
PhoP, residues 12 14 15 18 19 HHYTI (Escherichia coli, UniProt P23836): 1.17

Study 4 — method: RNA Bind-n-Seq; molecule type: RNA; sample: in vitro; tested at: 365 nM; baseline: no-protein control; direction: higher = stronger binding; quantity: RBNS enrichment (R)
Target: RNA binding protein fox-1 homolog 2, RRM domain, GST-SBP tag (RBFOX2, Homo sapiens, UniProt O43251-10, residues 100-194)
Notes: natural RNA segment, single round, ends assumed
Residues (chain): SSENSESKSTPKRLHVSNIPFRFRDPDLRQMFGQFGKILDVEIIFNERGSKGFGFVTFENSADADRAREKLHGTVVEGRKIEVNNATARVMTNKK
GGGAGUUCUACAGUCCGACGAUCCAAGGAGAUGCUCUCCCCGGUCUUCUGCUGCAAUUUAGAUUCCUUUCCCUUCUCUCCAGUUCUCCUUCCCUUACCAAGGAGAGGGGAGCAAAUGGUUUUGGGCAAGGGCUUGGAAUUCUCGGGUGCCAA: 0.249
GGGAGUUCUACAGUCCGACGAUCUAGUCCCCUGUUCCAAAGCCAUCUCAUAUGUUAGUUCUCUGUCCCAUGAAGAGGGCCGUGGUGAGUUCCCGAGAAUUGUCUCUCUUUCAGCAGAGAGGUGAGGGACUCAGUGGAAUUCUCGGGUGCCAA: 0.544
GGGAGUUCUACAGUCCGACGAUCAGGCUUCAGAGGUACCUGGCACCUUACUCAAGCAAAAACAAAAAACAGCUUUACUUCAAAAGCAUGUGCCUCUGGUAAAUUAUCCAUCACUUUUGUUUUAAAGUGGUCCCUGGAAUUCUCGGGUGCCAA: 0.444
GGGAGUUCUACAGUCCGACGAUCAUGGCCCAGCAGGCAGGCACUGUGGCCCUUCUGUCCACCAGACCCACCUGGAGCCCGCUUCAAGCUCUCUGUUGCGCUCCCGCAUUUCUCAUGCUUCUUCUCAUGGGGUGUGGAAUUCUCGGGUGCCAA: 0.208
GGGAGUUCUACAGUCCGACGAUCGUAACAGCAAAGUAUAUAUUUGAUGUUUUCUGUCUUUCAUGAUAUUGUGCUAACAAGUUGUGCUAAUAUUUAACUCAGCCAGAGUUUCACUCAUUUGCUAAGCAUUGGGAUGGAAUUCUCGGGUGCCAA: 0.334
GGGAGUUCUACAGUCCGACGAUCGAAAGGGGUUUAUGUAUAAAUAUAUUUUAUGCCUUUUUAUUACAAGUCUUGUUACUCAAUGACUUUUGUCAUGGCAGUUUGUUCUACUUUAGACUGUAAAUUAUGCAUUAUGGAAUUCUCGGGUGCCAA: 0.964
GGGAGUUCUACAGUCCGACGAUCUGUAAUGACCAGUGUUUAGAGUCCCUGUUGCUGAUACCUUUGAGUGAUUGACACCUGCUGCUUUUGAGGAGCUCGGCUGCAGUGAUCACUGGCGUGUGGCACUCUGGCUAUGGAAUUCUCGGGUGCCAA: 0.753
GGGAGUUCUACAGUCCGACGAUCUUUCUCAUGUACAGGGGCAGCGUGUCUGUGUGUGGAGGGUCCGGGUUACAAGGUAAGCUAGGUUGCCCACUUGCCCACUCGUCCUCUCCCUGCUGCAGUCUCUUGGGUCUUGGAAUUCUCGGGUGCCAA: 0.32
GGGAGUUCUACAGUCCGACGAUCCCGUAUAGAUUCAUCGUGUAGUUCUUCCCAAUAACAAUUACCCAUAUCAUUGAUGUAAAACCCUUGGACUUAGGGGGCAUGAGGAUUUAAUAUGCCUGCGGGGUAACGAUUGGAAUUCUCGGGUGCCAA: 5.82
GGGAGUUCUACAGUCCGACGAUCCUCACGCUGAUGGCUUGGCAGAGCACCUUCGGUUAACUUGCAUCUCCAGAUUGAUUACUCAAGCAGACAGCACACGAAAUACUAUUUUUCUCCUAAUAUGCUGUUUCCAUUGGAAUUCUCGGGUGCCAA: 0.31
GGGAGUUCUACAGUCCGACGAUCUUCUUACACCCAGCUUACGAGAUCUGGCUCAUACCUUCCCUUUGGAUCUCAUUAAAUGGUGAUUUCUCACUAUGCUCCAGCCCCUCUUAGGUCCUCAUCUCCGUCUUGCAUGGAAUUCUCGGGUGCCAA: 0.749
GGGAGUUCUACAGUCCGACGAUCAGAAAUGUUCAUAAUUUUAAUGGAUAUCCUUUGGUGUGAAUAAUUGAAUACAGAGUUUUUAAAAUAUUUUCACGUAUAUCACUUGCUCUCAUUUGUGGGGAAGAUAAUAGUGGAAUUCUCGGGUGCCAA: 0.483
